Assay results pooled from the literature.
Protocols differ between the studies behind these lines. ± gives the spread as reported. Values after ≈ are worked out from the molar mass of the structure shown.
Organism: Candida albicans

COC(=O)[C@H](C)NC(=O)c1ccccc1NC(=O)[C@H](Cc1ccc(OC(C)(C)C)cc1)N(C)C(=O)[C@@H](NC(=O)OCc1ccccc1)C(C)C
fold potentiation (potentiator, broth microdilution; ATCC 90029; 32.0 µg/mL, together with: amphotericin B; relative to: amphotericin B alone): 32

Oc1cccc2c1[nH]c1c(C3=CC4(O)CCC=CCCCCN5CCC3C3(CC6C=CCCCCN6C43)C5)nccc12 (single isomer, unassigned; (+))
IC50 (growth; ATCC 90028): 2.67 ± 0.06 µg/mL (≈ 4.73 µM)

CC[C@H]1OC(=O)[C@H](C)[C@@H](OC(=O)Cc2ccc(Cl)cc2)[C@H](C)[C@@H](O[C@@H]2O[C@H](C)C[C@H](N(C)C)[C@H]2O)[C@](C)(OC)C[C@@H](C)C(=O)[C@H](C)[C@@H](O)[C@]1(C)O
MIC (microbial growth; ATCC90028): > 32 µg/mL

N=C(N)NCCC[C@@H]1NC(=O)[C@H](CCCNC(=N)N)NC(=O)[C@@H](CCCNC(=N)N)NC(=O)[C@H](C(c2ccccc2)c2ccccc2)NC(=O)[C@H](C(c2ccccc2)c2ccccc2)NC(=O)[C@H](C(c2ccccc2)c2ccccc2)NC(=O)[C@H](CCCNC(=N)N)NC1=O
MIC (CA3): 16 µg/mL (≈ 12.4 µM)

COC(=O)c1cnc(-c2cnccn2)cc1C(=O)OC.COC(=O)c1cnc(-c2cnccn2)cc1C(=O)OC.F[P-](F)(F)(F)(F)F.[Ag+]
inhibition (biofilm formation, crystal violet staining; ATCC 10231; 1.75 µg/mL): 51 ± 7%

N=C(N)NCCC[C@@H]1NC(=O)[C@H](CCCNC(=N)N)NC(=O)[C@@H](C(c2ccccc2)c2ccccc2)NC(=O)[C@H](Cc2c[nH]c3ccccc23)NC(=O)[C@@H](C(c2ccccc2)c2ccccc2)NC(=O)[C@@H](CCCNC(=N)N)NC(=O)[C@@H](CCCNC(=N)N)NC1=O
biofilm mass reduction (ATCC 60193; 1 x MIC, 24 h, preformed biofilm): 37%

CC(C)[C@H](NC(=O)OCc1ccccc1)C(=O)N(C)[C@@H](Cc1ccc(OC(C)(C)C)cc1)C(=O)Nc1ccccc1C(=O)N[C@@H](C)C(=O)O
fold potentiation (potentiator, broth microdilution; ATCC 90029; 32.0 µg/mL, together with: amphotericin B; relative to: amphotericin B alone): 32

O=C(NCC(O)(Cn1cncn1)c1ccc(F)cc1F)[c-]1cccc1.[Cl-].[Co+3].c1cc[cH-]c1 (racemic)
MIC50 (EUCAST; SC5314; 48 h): 100 µM

CC(C)[C@H]1NC(=O)[C@H](Cc2ccccc2)NC(=O)[C@@H](C(C)C)NC(=O)[C@@H](C)NC(=O)[C@H](CO)NC(=O)[C@@H](Cc2c[nH]c3ccccc23)NC(=O)[C@@H](CO)NC1=O
MIC90 (broth dilution): > 50 µM

Repeated from above:
O=C(NCC(O)(Cn1cncn1)c1ccc(F)cc1F)[c-]1cccc1.[Cl-].[Co+3].c1cc[cH-]c1 (racemic)
MIC50 (EUCAST; SC5314; 48 h): 100 µM
